Assay results gathered from unrelated publications.
Lines come from different studies, so protocols differ. ± marks the error that the study gave.

For `COC(=O)C1=CO[C@@H](OC(C)=O)[C@@H]2C(Cn3cc(COCc4ccccc4)nn3)=CC[C@H]12`, the viability was 73 ± 0.2% (SK-N-SH; neuroprotection, MTT; 0.15 µM, 24 h, added: 250 µM H2O2).
`CCCCCCCCCCCCCC(=O)NCC(=O)N[C@@H](CCCNC(=N)N)C(=O)N[C@@H](Cc1c[nH]c2ccccc12)C(=O)N[C@@H](CCCCN)C(=O)N[C@H](C(=O)N[C@@H](Cc1ccccc1)C(=O)N[C@@H](CCCCN)C(=O)N[C@@H](CCCCN)C(=O)N[C@H](C(=O)N[C@@H](CCC(=O)O)C(=O)N[C@@H](CCCCN)C(=O)N[C@H](C(=O)NCC(=O)N[C@@H](CCC(N)=O)C(=O)N[C@@H](CC(N)=O)C(=O)N[C@H](C(=O)N[C@@H](CCCNC(=N)N)C(=O)N[C@@H](CC(=O)O)C(=O)NCC(=O)N[C@H](C(=O)N[C@H](C(=O)N[C@@H](CCCCN)C(=O)N[C@@H](C)C(=O)NCC(=O)N1CCC[C@H]1C(=O)N[C@@H](C)C(=O)N[C@H](C(=O)N[C@@H](C)C(=O)N[C@H](C(=O)N[C@H](C(=O)NCC(=O)N[C@@H](CCC(N)=O)C(=O)N[C@@H](C)C(=O)N[C@@H](C)C(=O)N[C@H](C(=O)N[C@H](C(N)=O)[C@@H](C)CC)[C@@H](C)O)C(C)C)C(C)C)C(C)C)C(C)C)[C@@H](C)CC)[C@@H](C)CC)C(C)C)[C@@H](C)CC)[C@@H](C)CC`: “Bax protein level” “increased” (Jurkat; western blot; concentration not given, 16 h).
`CC(C)CC(O)(CC(C)C)c1cn(C(=O)N2CCCC2)nn1` has an SILAC ratio of 2.42 ± 0.35 (mouse T-cells; N-terminal labeled proteins, N-terminal enrichment proteomics, measured: TPI1; 1 nM, 6 h; relative to: DMSO).
`COc1ccc(CCNc2c(NC3CCN(Cc4ccccc4)CC3)c(=O)c2=O)cc1OC` has a cell survival of 57.9% (SH-SY5Y; neuroprotection, MTT; 12.5 µM, 24 h pretreatment, added: H2O2 650 µM for 4 h).
`COC(=O)C1=CO[C@@H](OC(C)=O)[C@@H]2C(Cn3cc(CN4C(=O)c5ccccc5C4=O)nn3)=CC[C@H]12` has a viability of 54.2 ± 1.1% (SK-N-SH; neuroprotection, MTT; 0.15 µM, 24 h, added: 250 µM H2O2).
`CN1C(=O)C2(Cc3ccc(CC45SSC(CO)(C(=O)N4C)N(C)C5=O)cc3)SSC1(CO)C(=O)N2C` (racemic): “number of up-regulated transcripts” 40 (MCF7 cells; microarray; 600 nM, fold change at least 4.0, added: DFO 300 µM; relative to: DFO alone).
For `CC/C=C\C/C=C\C/C=C\C/C=C\C/C=C\C/C=C\CCC(=O)Nc1ccn(C2OC(CO)C(O)C2(F)F)c(=O)n1` (centres unmarked), the CC50 was 43.2 µM (OVCAR-8; NCI60 screen).
Under “fold reversal of IC50”, `CCC(C)C(=O)OC1C2C3(C)CCC(OC4CC(OC)C(OC5OC(C)C(O)C(OC)C5O)C(C)O4)CC3CCC23OC32CCC(C(C)=O)C2(C)C1OC(C)=O` (centres unmarked) is recorded as 22 (MDA435/LCC6-MDR1; cell growth, MDR reversal, SRB; 10 µM, added: paclitaxel; relative to: paclitaxel alone over combination).
`[Cl][Ag].[Se]=c1n(C2CCCCC2)ccn1C1CCCCC1` has an IC50 of 3.1 µM (A2780; cell growth or viability, MTT; 72 h).
For `c1ccc2nc(Nc3c4c(nc5ccccc35)CCCC4)ccc2c1`, the viability was 62.8 ± 3.37% (SH-SY5Y; MTT; 50 µM, 1 h pretreatment, 10% FBS, added: H2O2).
With `COC(=O)C1=CO[C@@H](O)[C@@H]2C(Cn3cc(-c4ccc(OC)cc4)nn3)=CC[C@H]12` the viability was 54.9 ± 2.5% (SK-N-SH; neuroprotection, MTT; 0.075 µM, 24 h, added: 250 µM H2O2).
The GI50 of `COc1cc(/C=C(\C#N)C(=O)Nc2nnc(C(F)(F)F)s2)ccc1OC(=O)N1CCN(C(=O)CCCC(=O)NCCCC[C@@H]2NC(=O)[C@@H](Cc3ccc(O)cc3)NC(=O)[C@H](CC(=O)O)NC(=O)CNC(=O)[C@H](CCCNC(=N)N)NC2=O)CC1` is reported as 63 ± 0.9 µM (U87; cell growth, MTT; 48 h).
`Cc1nc(C)c(C=[N+]([O-])C(C)(C)C)nc1C`: “cell survival increase” 9.95% (rat primary midbrain neurons; MTT; 30 µM, added: MPP+).
`COc1cc(C)c(OC)c(OC)c1OC` has a GI50 of > 250 µM (SK-OV-3; cell growth or viability, MTT; 72 h).
`COC(=O)C1=CO[C@@H](OC(C)=O)[C@@H]2C(Cn3cc(COCc4ccc(OC)cc4)nn3)=CC[C@H]12` has a viability of 67.6 ± 0.5% (SK-N-SH; neuroprotection, MTT; 0.3 µM, 24 h, added: 250 µM H2O2).
With `Cc1cc(C)c(-n2ccn(-c3c(C)cc(C)cc3C)c2=[Se])c(C)c1.[Cl][Au]` the IC50 was 2.8 µM (A-431; cell growth or viability, MTT; 72 h).
For `N=C(N)NCCC[C@@H]1NC(=O)[C@H](CCCCNC(=O)CCOCCOCCOCCOCCNC(=O)CC[C@H](NC(=O)CCOCCOCCOCCOCCNC(=O)CC[C@H](NC(=O)CN2CCN(CC(=O)O)CCN(CC(=O)O)CCN(CC(=O)O)CC2)C(=O)NCCOCCOCCOCCOCCC(=O)N[C@@H](CCC(=O)NCCOCCOCCOCCOCCC(=O)NCCCC[C@@H]2NC(=O)[C@@H](Cc3ccccc3)NC(=O)[C@H](CC(=O)O)NC(=O)CNC(=O)[C@H](CCCNC(=N)N)NC2=O)C(=O)NCCOCCOCCOCCOCCC(=O)NCCCC[C@@H]2NC(=O)[C@@H](Cc3ccccc3)NC(=O)[C@H](CC(=O)O)NC(=O)CNC(=O)[C@H](CCCNC(=N)N)NC2=O)C(=O)NCCOCCOCCOCCOCCC(=O)NCCCC[C@@H]2NC(=O)[C@@H](Cc3ccccc3)NC(=O)[C@H](CC(=O)O)NC(=O)CNC(=O)[C@H](CCCNC(=N)N)NC2=O)NC(=O)[C@@H](Cc2ccccc2)NC(=O)[C@H](CC(=O)O)NC(=O)CNC1=O` [indium-111 labelled], the excreted dose was > 75% (athymic nude mouse, female, U-87 MG xenograft, urine; intravenous, dose not given).
For `COC(=O)C1=CO[C@@H](OC(C)=O)[C@@H]2C(Cn3cc(CCO[Si](c4ccccc4)(c4ccccc4)C(C)(C)C)nn3)=CC[C@H]12`, the viability was 48.5 ± 0.8% (SK-N-SH; neuroprotection, MTT; 0.15 µM, 24 h, added: 250 µM H2O2).
With `CC[C@H](C)[C@H](NC(=O)[C@H](CCCCN)NC(=O)[C@@H](NC(=O)[C@H](CCC(N)=O)NC(=O)[C@@H](N)CCCNC(=N)N)[C@@H](C)CC)C(=O)N[C@@H](Cc1c[nH]c2ccccc12)C(=O)N[C@@H](Cc1ccccc1)C(=O)N[C@@H](CCC(N)=O)C(=O)N[C@@H](CC(N)=O)C(=O)N[C@@H](CCCNC(=N)N)C(=O)N[C@@H](CCCNC(=N)N)C(=O)N[C@@H](CCSC)C(=O)N[C@@H](CCCCN)C(=O)N[C@@H](Cc1c[nH]c2ccccc12)C(=O)N[C@@H](CCCCN)C(=O)N[C@@H](CCCCN)C(=O)N[C@@H](CO)C(=O)N[C@@H](Cc1c[nH]c2ccccc12)C(=O)N[C@H](C(=O)N[C@@H](Cc1c[nH]c2ccccc12)C(=O)N[C@@H](CCC(=O)O)C(=O)N[C@@H](CCCCN)C(=O)N[C@@H](CCCCN)C(=O)N[C@@H](CC(C)C)C(=O)N[C@@H](CCC(=O)O)C(=O)N[C@H](C(=O)N[C@@H](C)C(=O)N[C@H](C(=O)N[C@@H](CC(N)=O)C(=O)N[C@@H](CC(C)C)C(=O)N[C@@H](C)C(=O)N[C@@H](Cc1c[nH]c2ccccc12)C(=O)N[C@H](C(=O)N[C@@H](C)C(=O)NCC(=O)N[C@@H](CC(N)=O)C(=O)N[C@@H](CO)C(=O)N[C@@H](CC(N)=O)C(=O)N[C@@H](CCCCN)C(=O)N[C@@H](Cc1c[nH]c2ccccc12)C(=O)N[C@H](C(=O)N[C@@H](Cc1c[nH]c2ccccc12)C(=O)N[C@@H](CCCCN)C(=O)O)[C@@H](C)O)[C@@H](C)O)C(C)C)[C@@H](C)O)[C@@H](C)O` the apoptotic cells was > 95% (MEC1; acridine orange/ethidium bromide; concentration not given, 40 min).
For `[N]#[Os]([Cl])([Cl])[Cl].c1ccc(-c2ccnc3c2ccc2c(-c4ccccc4)ccnc23)cc1`, “ER area increase” read 25.1% (A2780; ER-Tracker microscopy; 10 µM, 4 h; relative to: untreated).
`COC(=O)C[C@](O)(CCCC(C)(C)OC(C)=O)C(=O)O[C@@H]1C(OC)=C[C@]23CCCN2CCc2cc4c(cc2[C@H]13)OCO4` — result for “BCL-2 and BCL-XL protein level”: “no effect” (pancreatic cancer cells; western blot; 1 µM, 48 h).
`CC1(C)CC([n+]2cc([NH-])on2)CC(C)(C)N1O` — result for “highest proliferative concentration”: ≤ 16 µM (human trabecular meshwork cells; cell proliferation; added: TBHP 300 µM).
With `COc1cc2c3cc1Oc1cc(ccc1O)CC1c4c(cc(OC)c(O)c4Oc4ccc(cc4)CC3N(C)CC2)CCN1C` (centres unmarked) the selectivity index was 204 (HEK293; relative to: CC50 HEK293 over INDO IC50).
For `CCCCCCCCCCOCc1cn(CC2=CC[C@@H]3C(C(=O)OC)=CO[C@@H](OC(C)=O)[C@H]23)nn1`, the viability was 60.8 ± 0.6% (SK-N-SH; neuroprotection, MTT; 0.3 µM, 24 h, added: 250 µM H2O2).
`COc1ccc(Nc2c3c(nc4ccccc24)CCCC3)cc1` has a viability of 47.7 ± 2.63% (SH-SY5Y; MTT; 50 µM, 1 h pretreatment, 10% FBS, added: H2O2).
`COC(=O)C1=CO[C@@H](O)[C@@H]2C(Cn3cc(CN4C(=O)c5ccccc5C4=O)nn3)=CC[C@H]12` gave a viability of 70.1 ± 1.5% (SK-N-SH; neuroprotection, MTT; 0.075 µM, 24 h, added: 250 µM H2O2).
For `CC[C@H](C)[C@@H](OC(=O)[C@@H](NC(=O)[C@H](C)OCc1ccccc1)C(C)C)C(=O)N[C@@H](C(=O)O[C@@H](C)C(=O)N[C@H](C(=O)O[C@@H](C(=O)N[C@@H](C(=O)OC(C)(C)C)C(C)C)[C@@H](C)CC)C(C)C)C(C)C`, the ED50 was > 10 µg/mL (P388; cell growth; DMSO).
The viability of `COC(=O)C1=CO[C@@H](O)[C@@H]2C(Cn3cc(C4(O)CCCCC4)nn3)=CC[C@H]12` is reported as 79.2 ± 1% (SK-N-SH; neuroprotection, MTT; 0.3 µM, 24 h, added: 250 µM H2O2).
With `Cc1cccc(C)c1OCC(=O)N[C@@H](Cc1ccccc1)[C@H](C[C@H](Cc1ccccc1)NC(=O)[C@H](C(C)C)N1CCCNC1=O)OC(=O)[C@H](CC(C)C)NC(=O)[C@@H](N)Cc1cnc[nH]1` the remaining uptake was ~30% (cell line; transport, inhibitor; 25 µM, added: [3H]-L-histidine; relative to: untreated).
